# Results gathered from unrelated publications.
# A part holds a random share of what one study measured.

# Block 1
# Target: Sal-like protein 4, full length isoform A (SALL4, Homo sapiens, UniProt Q9UJQ4, residues 1-1053)
# Sequence of UniProt Q9UJQ4 (whole entry, looked up): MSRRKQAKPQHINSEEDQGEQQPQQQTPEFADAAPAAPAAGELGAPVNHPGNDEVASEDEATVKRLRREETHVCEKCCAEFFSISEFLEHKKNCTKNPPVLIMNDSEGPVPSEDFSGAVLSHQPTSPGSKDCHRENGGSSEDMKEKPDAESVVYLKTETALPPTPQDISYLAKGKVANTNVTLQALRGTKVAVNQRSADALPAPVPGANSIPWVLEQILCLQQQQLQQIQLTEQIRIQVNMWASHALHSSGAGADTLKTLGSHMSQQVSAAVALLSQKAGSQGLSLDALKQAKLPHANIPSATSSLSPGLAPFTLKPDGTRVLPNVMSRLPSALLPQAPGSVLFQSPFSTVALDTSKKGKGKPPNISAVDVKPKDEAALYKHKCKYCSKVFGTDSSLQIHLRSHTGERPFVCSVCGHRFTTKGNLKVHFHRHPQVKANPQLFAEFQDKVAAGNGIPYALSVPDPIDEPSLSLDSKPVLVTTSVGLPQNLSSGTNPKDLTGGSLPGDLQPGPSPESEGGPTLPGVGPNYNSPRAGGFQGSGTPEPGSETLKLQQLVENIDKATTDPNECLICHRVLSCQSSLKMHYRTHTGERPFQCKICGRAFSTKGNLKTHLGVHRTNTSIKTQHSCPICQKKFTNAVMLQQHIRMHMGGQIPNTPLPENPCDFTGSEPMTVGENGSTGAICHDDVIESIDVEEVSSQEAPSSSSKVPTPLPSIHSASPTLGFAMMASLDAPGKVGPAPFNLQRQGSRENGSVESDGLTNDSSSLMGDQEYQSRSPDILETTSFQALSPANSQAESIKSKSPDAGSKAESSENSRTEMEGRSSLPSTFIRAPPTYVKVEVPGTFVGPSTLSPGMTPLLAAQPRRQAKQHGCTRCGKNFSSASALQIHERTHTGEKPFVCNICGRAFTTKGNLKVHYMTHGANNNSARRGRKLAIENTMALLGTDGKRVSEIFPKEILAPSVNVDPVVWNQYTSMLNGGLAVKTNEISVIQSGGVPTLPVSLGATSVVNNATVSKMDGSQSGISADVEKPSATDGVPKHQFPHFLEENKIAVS
# Method: universal PBM
# Form: double-stranded DNA, one strand shown
# Medium: in vitro
# Tested at: 600 nM
# Setting: 8-mer, flanks averaged, mean of replicates
# Direction: higher = stronger binding
Oligonucleotide,E-score
CAAATGTG,0.164
AGGTGTAT,0.176
CTGACCGC,-0.291
AATTTCTC,0.159
TAGAGTAA,0.172

# Block 2
# Target: Histone acetyltransferase KAT6A, winged helix 2, GST fusion (KAT6A, Homo sapiens, UniProt Q92794, residues 85-181)
# Method: protein binding microarray
# Form: double-stranded DNA, one strand shown
# Medium: in vitro
# Tested at: not given
# Setting: 8-mer, flanks averaged, mean of 2 arrays, mostly near background
# Reference: not given
# Direction: higher = stronger binding
# Construct (chain): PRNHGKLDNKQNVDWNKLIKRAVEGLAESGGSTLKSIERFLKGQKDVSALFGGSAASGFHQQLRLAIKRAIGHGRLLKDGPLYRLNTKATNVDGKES
Oligonucleotide,E-score
GCTTATAA,-0.0184
ACGGAAGC,0.0838
GACTTATC,-0.306
CAGCACAC,-0.00962

# Block 3
# Target: Fragile X messenger ribonucleoprotein 1, C-terminal low-complexity region (Fmr1, Mus musculus, UniProt P35922)
# Method: RNA Bind-n-Seq
# Form: RNA
# Medium: in vitro
# Tested at: 200 nM
# Setting: whole 134-nt RNA, ends assumed
# Added: 150 mM LiCl
# Reference: input library
# Direction: higher = stronger binding
# Each molecule: 7-deaza-guanosine replaces G
Oligonucleotide,log2 enrichment
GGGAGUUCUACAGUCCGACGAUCUCAAGUCCUGUGCUACACAUCGUAUGUACCGAAUCGGGUGGGAAAGGGAAAGGGAAAGUAUUAUGUUACGCCGUUCGGAUCUGCACUUCCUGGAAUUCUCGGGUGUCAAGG,-1.08
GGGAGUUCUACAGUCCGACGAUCUGGCCCUUCCCCUGGAGCCAUGCUGGGCCCUAGCCCGGGUCCCUCGCCGGGCUCCGCCCACAGCAUGAUGGGGCCCAGCCCAGGGCCGCCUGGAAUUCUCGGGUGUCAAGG,0.667
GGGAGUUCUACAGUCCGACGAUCCCUCAAGUCCUGUGCUACACAUCGUAUGUACCGAAUCGGGGUGGGGUGGGUGGAAAGUAUUAUGUUACGCCGUUCGGAUCUGCACUUCCAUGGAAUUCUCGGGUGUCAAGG,-1.01
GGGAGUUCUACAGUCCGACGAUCCCUCAAGUCCUGUGCUACACAUCGUAUGUACCGAAUCGGGAAGGAAGGAAGGAAAGUAUUAUGUUACGCCGUUCGGAUCUGCACUUCCAGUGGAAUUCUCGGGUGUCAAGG,-0.852
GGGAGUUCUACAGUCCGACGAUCCCUGUGCUACACAUCGUAUGUACCGAAUCAAACCCCCAAAUUUUUUUAAACCCCCCCAAAAAAGUAUUAUGUUACGCCGUUCGGAUCUGCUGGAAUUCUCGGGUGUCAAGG,2.09
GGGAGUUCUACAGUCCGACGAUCUCAAGUCCUGUGCUACACAUCGUAUGUACCGAAUCGGAAAGGGAAAGGGAAAGGAAAGUAUUAUGUUACGCCGUUCGGAUCUGCACUUCCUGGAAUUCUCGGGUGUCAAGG,-0.465
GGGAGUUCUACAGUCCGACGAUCGUCCUGUGCUACACAUCGUAUGUACCGAAUCGGCCCCCGGGGCCCCCGGGGCCCCCGGAAAGUAUUAUGUUACGCCGUUCGGAUCUGCACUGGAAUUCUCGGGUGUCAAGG,-1.21

# Mixed results
Molecule,target,test,system,setting,how to read,endpoint,result
"PhoQ, residues 284 288 289 292 302 303 NLGVHL","PhoP, residues 12 14 15 18 19 LHSVW (Escherichia coli, UniProt P23836)","Sort-seq, measured: YFP reporter",E. coli,"PhoQ-PhoP variant library, added: 10 µM Mg2+","reference: high Mg2+ state, higher = stronger signaling",fold induction,3.11

# Some of these lines once more (block 1):
Oligonucleotide,E-score
AGGTGTAT,0.176
CTGACCGC,-0.291
